# Assay results pooled from the literature.
# The chains behind the UniProt entries cited, without tags or fusion partners. Where a name states a change or a piece, a line headed by the entry shows the natural chain unless it says otherwise. Residues count along the entry.
# UniProt P03372, whole entry: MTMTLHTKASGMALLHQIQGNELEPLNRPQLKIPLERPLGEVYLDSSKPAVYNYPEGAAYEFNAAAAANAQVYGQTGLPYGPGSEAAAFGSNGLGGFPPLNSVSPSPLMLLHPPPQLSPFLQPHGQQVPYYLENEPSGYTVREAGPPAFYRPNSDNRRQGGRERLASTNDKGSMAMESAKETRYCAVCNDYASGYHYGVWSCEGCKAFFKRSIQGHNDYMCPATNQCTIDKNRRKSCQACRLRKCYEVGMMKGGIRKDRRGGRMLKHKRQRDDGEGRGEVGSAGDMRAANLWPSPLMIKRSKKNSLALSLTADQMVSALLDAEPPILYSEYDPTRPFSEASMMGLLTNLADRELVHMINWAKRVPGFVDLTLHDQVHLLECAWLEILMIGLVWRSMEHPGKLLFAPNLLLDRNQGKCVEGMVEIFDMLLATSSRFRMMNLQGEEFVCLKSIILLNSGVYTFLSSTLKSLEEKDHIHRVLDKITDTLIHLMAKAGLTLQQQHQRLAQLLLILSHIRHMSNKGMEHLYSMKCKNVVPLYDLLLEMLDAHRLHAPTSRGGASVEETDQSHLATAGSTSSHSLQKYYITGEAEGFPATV
# UniProt P31424, 21-1203 limits assumed: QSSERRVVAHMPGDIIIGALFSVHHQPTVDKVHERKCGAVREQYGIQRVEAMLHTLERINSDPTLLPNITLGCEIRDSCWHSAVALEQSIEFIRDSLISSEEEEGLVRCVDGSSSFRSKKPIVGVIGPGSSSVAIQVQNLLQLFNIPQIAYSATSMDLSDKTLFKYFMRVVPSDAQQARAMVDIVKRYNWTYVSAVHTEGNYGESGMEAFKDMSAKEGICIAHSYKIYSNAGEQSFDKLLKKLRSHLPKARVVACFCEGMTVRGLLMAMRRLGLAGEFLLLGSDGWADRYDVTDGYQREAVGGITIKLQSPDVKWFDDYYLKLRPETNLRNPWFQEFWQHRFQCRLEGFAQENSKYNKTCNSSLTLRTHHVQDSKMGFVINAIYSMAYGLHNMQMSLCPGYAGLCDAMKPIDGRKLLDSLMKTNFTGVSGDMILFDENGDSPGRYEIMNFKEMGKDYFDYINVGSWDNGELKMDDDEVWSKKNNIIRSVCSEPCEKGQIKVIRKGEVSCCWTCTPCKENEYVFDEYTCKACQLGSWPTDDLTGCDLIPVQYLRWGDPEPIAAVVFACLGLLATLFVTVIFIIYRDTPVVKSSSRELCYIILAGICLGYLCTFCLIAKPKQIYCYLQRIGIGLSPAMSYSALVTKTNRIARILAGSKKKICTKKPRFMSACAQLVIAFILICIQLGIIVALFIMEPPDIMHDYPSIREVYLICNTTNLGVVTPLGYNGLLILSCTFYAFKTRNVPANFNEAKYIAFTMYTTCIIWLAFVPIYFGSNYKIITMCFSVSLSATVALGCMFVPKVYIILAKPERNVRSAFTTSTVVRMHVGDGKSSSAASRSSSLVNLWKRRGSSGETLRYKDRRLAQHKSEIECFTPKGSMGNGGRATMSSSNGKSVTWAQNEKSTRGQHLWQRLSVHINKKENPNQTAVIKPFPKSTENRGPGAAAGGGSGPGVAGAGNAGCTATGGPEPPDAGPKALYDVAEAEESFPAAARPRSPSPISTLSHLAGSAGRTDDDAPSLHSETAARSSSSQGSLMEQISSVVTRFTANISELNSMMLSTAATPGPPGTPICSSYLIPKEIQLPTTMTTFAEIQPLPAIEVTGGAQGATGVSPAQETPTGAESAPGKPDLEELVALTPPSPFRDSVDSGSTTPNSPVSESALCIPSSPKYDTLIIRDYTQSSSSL
# UniProt P28482, whole entry: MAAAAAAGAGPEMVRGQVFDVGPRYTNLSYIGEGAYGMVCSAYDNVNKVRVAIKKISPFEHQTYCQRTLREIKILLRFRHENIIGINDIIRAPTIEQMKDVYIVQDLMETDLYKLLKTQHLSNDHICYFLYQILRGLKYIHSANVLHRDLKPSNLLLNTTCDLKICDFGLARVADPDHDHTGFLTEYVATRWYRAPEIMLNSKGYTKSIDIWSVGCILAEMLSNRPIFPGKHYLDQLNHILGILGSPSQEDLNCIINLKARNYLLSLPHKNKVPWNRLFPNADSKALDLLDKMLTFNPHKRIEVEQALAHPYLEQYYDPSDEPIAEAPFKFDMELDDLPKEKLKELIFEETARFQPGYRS
# UniProt A0A8I3MXG6, 1-394: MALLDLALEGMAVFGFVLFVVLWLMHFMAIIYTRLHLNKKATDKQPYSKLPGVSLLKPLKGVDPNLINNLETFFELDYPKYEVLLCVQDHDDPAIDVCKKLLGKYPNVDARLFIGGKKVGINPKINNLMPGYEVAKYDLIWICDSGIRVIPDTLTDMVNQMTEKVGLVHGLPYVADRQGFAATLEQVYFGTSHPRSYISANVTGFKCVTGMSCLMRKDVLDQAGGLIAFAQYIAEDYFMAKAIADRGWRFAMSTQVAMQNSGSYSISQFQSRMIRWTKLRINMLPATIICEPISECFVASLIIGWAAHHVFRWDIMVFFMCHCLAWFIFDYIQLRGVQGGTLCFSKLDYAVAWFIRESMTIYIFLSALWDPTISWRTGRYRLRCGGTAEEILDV
# UniProt Q96RJ0, whole entry: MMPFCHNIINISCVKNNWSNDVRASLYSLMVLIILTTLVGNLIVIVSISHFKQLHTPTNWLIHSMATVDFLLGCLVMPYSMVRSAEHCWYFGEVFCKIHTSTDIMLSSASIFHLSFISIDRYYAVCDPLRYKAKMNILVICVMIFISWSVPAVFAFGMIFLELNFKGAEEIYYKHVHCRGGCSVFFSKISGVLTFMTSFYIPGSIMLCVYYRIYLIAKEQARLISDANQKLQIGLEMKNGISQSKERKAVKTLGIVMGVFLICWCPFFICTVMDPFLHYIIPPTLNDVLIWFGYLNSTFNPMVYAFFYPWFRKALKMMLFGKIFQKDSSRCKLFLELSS
# UniProt O14757, whole entry: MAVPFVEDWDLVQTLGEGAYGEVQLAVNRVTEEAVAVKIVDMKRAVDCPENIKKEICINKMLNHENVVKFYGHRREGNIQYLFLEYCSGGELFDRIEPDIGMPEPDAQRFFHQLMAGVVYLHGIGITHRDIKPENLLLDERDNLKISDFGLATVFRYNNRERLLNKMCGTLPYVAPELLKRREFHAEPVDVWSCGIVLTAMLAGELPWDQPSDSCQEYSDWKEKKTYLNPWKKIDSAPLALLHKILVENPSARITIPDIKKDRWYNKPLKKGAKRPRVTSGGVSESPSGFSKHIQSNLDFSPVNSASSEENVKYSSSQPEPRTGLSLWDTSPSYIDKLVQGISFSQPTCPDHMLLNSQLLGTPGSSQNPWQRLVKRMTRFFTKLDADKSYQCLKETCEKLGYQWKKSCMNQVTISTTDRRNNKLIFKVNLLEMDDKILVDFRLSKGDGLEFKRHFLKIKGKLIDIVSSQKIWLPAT
# UniProt P09619, 33-1106 limits assumed: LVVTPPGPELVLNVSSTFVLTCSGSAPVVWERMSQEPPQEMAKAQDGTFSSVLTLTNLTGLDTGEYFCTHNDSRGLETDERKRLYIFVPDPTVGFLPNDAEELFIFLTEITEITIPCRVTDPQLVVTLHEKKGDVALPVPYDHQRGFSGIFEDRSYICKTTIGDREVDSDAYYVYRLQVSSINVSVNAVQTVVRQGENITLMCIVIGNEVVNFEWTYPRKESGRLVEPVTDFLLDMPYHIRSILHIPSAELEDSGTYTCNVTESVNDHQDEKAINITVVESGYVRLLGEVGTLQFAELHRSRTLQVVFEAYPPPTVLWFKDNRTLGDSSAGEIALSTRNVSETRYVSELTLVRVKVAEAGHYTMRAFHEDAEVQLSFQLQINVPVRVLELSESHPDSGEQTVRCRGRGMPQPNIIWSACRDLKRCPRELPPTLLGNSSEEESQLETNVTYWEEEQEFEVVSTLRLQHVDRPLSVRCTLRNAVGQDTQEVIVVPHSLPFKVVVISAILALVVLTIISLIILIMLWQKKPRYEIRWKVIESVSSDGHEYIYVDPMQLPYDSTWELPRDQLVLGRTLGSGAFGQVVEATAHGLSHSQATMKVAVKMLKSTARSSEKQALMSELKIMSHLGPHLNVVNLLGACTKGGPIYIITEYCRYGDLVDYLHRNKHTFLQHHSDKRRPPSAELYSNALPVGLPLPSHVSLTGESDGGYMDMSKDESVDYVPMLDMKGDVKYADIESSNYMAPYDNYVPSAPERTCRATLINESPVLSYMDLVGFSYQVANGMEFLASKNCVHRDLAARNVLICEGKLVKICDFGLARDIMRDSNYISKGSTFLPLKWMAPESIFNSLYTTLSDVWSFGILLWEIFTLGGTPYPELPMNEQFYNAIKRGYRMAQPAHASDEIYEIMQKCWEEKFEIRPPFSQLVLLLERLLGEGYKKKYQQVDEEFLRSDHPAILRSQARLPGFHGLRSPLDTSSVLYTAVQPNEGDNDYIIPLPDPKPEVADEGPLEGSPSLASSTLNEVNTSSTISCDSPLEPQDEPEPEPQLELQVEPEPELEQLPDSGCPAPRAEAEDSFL
# UniProt Q99497, whole entry: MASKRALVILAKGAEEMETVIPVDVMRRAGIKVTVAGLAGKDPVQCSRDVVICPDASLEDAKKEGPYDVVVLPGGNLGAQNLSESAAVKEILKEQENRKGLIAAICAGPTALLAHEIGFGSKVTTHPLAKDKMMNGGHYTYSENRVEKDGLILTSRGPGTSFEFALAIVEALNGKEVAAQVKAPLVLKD
# UniProt Q9BV23, whole entry: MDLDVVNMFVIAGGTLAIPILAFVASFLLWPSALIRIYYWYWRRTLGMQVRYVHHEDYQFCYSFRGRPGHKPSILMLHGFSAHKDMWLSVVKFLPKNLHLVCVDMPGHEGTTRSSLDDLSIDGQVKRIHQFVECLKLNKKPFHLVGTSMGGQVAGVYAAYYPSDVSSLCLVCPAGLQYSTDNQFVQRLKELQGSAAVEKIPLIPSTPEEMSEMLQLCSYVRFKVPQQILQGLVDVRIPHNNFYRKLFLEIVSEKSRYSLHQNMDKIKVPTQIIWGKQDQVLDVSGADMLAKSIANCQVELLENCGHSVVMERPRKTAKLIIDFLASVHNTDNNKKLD
# UniProt P28072, whole entry, looked up: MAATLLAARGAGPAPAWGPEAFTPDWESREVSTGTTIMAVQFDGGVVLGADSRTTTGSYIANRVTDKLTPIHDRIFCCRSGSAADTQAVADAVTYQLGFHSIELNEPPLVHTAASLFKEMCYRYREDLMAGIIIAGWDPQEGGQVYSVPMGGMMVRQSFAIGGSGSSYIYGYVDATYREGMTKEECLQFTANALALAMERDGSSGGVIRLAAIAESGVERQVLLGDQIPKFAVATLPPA
# UniProt P00519, 242-493 limits assumed: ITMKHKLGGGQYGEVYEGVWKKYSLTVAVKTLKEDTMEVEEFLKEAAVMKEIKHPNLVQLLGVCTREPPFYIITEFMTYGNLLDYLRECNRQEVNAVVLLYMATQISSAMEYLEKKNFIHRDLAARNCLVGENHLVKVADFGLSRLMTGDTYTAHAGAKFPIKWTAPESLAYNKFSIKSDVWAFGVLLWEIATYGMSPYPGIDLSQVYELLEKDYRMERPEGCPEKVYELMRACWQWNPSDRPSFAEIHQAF
# UniProt Q96HE7, whole entry, looked up: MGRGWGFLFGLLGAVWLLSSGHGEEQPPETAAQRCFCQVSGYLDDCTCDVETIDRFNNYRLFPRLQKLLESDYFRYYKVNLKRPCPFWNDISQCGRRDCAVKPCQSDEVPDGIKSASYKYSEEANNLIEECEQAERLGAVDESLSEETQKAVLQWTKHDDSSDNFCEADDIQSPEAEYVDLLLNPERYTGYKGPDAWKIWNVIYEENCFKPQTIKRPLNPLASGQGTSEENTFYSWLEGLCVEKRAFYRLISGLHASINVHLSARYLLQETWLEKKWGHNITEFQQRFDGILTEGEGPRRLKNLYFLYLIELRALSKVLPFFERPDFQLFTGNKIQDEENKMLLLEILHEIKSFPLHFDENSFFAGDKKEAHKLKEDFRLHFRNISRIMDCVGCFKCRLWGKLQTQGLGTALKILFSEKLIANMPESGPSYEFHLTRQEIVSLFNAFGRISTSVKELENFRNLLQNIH
# UniProt P14902, whole entry: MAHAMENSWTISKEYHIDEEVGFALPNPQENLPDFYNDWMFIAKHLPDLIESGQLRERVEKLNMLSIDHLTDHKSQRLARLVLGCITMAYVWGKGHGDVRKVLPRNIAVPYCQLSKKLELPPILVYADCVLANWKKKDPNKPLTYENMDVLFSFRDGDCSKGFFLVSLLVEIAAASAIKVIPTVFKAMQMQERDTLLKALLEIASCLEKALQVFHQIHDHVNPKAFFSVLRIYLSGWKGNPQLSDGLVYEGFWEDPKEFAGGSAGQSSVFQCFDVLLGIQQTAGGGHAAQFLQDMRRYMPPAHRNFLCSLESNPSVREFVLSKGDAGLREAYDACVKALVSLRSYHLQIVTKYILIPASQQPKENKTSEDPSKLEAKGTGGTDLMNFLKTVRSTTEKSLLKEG
# UniProt P08246, 30-247 limits assumed: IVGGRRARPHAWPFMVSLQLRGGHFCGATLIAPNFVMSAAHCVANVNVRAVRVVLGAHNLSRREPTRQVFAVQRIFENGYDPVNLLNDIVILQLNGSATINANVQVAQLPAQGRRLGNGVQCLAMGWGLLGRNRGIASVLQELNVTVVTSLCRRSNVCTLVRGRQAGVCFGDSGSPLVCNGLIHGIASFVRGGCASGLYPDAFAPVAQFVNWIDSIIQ
# Compare with care: the assays were run in different laboratories. ± gives the spread as reported.
# APP amyloid-beta peptide: Amyloid-beta precursor protein, amyloid-beta peptide (APP, Homo sapiens, UniProt P05067)
# Glutamate receptor ionotropic, NMDA 2D with GluN1: Glutamate receptor ionotropic, NMDA 2D, with GluN1 (Rattus norvegicus, UniProt Q62645)
Structure (SMILES),tested on,test,system,setting,how to read,endpoint,result
COc1ccc(-n2nc(C(F)(F)F)nc2-c2ccc(OC)nc2)cc1,"Prostaglandin G/H synthase 2 (PTGS2, Homo sapiens, UniProt P35354)","PGE2 production, inhibitor, enzyme immunoassay",human whole blood,,,IC50,776 ± 71 nM
O=C(NC1CC1)C(=O)[C@H](Cc1ccccc1)NC(=O)[C@H]1CCC(=O)N1Cc1ccccc1,"Calpain-1 catalytic subunit (CAPN1, Homo sapiens, UniProt P07384)","enzyme activity, inhibitor",,,,IC50,520 ± 100 nM
O=C(NO)c1cccc(F)c1,"Protein deacetylase HDAC6 (HDAC6, Homo sapiens, UniProt Q9UBN7)","enzyme activity, inhibitor, electrophoretic mobility shift",,added: FAM-RHKK(Ac)-NH2 1 µM,,IC50,505 nM
N#Cc1ccccc1N1CCN(C(=O)CCCCCCCn2c(=S)[nH]c3ccccc3c2=O)CC1,"Estrogen receptor (ESR1, Homo sapiens, UniProt P03372)","reporter gene, coactivator binding inhibitor, luciferase reporter",HEC-1 cells transfected with ERα,"significant cytotoxicity, added: estradiol 1 nM",,IC50,2700 nM
O=C(NCc1ccc(Cl)cc1)[C@@H]1C[C@@H](O)CN1C(=O)c1cccc(-c2ccccc2)c1,"von Hippel-Lindau disease tumor suppressor, with elongin B, C (VHL, Homo sapiens, UniProt P40337)","binding, fluorescence polarization",,"10% DMSO, added: FAM-HIF1α peptide tracer",,IC50,33000 ± 4000 nM
COc1cc([C@@H]2c3cc4c(cc3C=C(C=O)[C@H]2C(=O)OCCCCCCBr)OCO4)cc(OC)c1OC,Leishmania infantum,,"promastigote, iRFP",,,EC50,25700 ± 3600 nM
N#Cc1cnc(Nc2nc3ccccc3o2)nc1-c1ccc(Cl)cc1Cl,"Metabotropic glutamate receptor 5 (Grm5, Rattus norvegicus, UniProt P31424)","calcium mobilization, negative allosteric modulator",,added: glutamate EC80,,IC50,666 ± 238 nM
O=C(Nc1ccc(-c2nc3ccc(NC(=O)C4CCCCC4)cc3s2)cc1)C1CCCCC1,"Moesin, with CD44 (Homo sapiens, UniProt P26038)","MSN-CD44 interaction, inhibitor, TR-FRET",,added: CD44,,IC50,> 20000 nM
CN1CC[C@H](c2c(O)cc(O)c3c(=O)cc(-c4ccccc4F)oc23)[C@H](O)C1,"Mitogen-activated protein kinase 1 (MAPK1, Homo sapiens, UniProt P28482)","kinase activity, inhibitor",,added: ATP at Km,,IC50,> 10000 nM
O=C(CC1Cc2ccccc2C1)N[C@H](CN1CC[C@@H](F)C1)[C@H](O)c1ccc(OC(F)(F)F)cc1,"Ceramide glucosyltransferase (UGCG, Canis lupus familiaris, UniProt A0A8I3MXG6)","inhibitor, refers to: glucosylceramide",MDCK,24 h,,IC50,23.2 nM
COc1ccc(NC(=O)CSc2nc(-c3ccc(C)cc3)cc(C(F)(F)F)c2C#N)cc1,"Trace amine-associated receptor 1 (TAAR1, Homo sapiens, UniProt Q96RJ0)",,,,,IC50,> 10000 nM
[N-]=[N+]=NCS(=O)(=O)NC(CCC(=O)O)C(=O)O (stereo not shown),"Glutamate carboxypeptidase 2 (FOLH1, Homo sapiens, UniProt Q04609)","enzyme activity, inhibitor, HPLC",,"15 min, pH 7.4, 37 °C, 1% Triton X-100, added: 10 mM glutamate dipeptide substrate",,IC50,> 100000 nM
CC(=NNC(N)=NO)c1ccc(NC(=O)c2cc3cccc([N+](=O)[O-])c3[nH]2)cc1,"Serine/threonine-protein kinase Chk1 (CHEK1, Homo sapiens, UniProt O14757)","kinase activity, inhibitor, IMAP fluorescence polarisation",,60 min,,IC50,> 100000 nM
C[C@@H]1CN(C2CCC2)CC[C@H](O[C@H]2[C@@H](O)C[C@H](O[C@H]3[C@@H](O)C[C@H](O[C@H]4CC[C@@]5(C)[C@H](CC[C@@H]6[C@@H]5C[C@@H](O)[C@]5(C)[C@@H](C7=CC(=O)OC7)CC[C@]65O)C4)O[C@@H]3C)O[C@@H]2C)O1,"Sodium/potassium-transporting ATPase subunit alpha-1, with beta1 subunit (ATP1A1, Homo sapiens, UniProt P05023)","Na+/K+-ATPase activity, inhibitor",,purified human α1β1,,IC50,134 ± 10 nM
COc1cc2nccc(Oc3ccc(NC(=S)NC4CCC4)c(Cl)c3)c2cc1C(N)=O,"Platelet-derived growth factor receptor beta (PDGFRB, Homo sapiens, UniProt P09619)",,,,,IC50,161 nM
O=C1C(=O)N(CCc2ccccc2)c2ccc(F)cc21,"Parkinson disease protein 7 (PARK7, Homo sapiens, UniProt Q99497)","glyoxalase activity, inhibitor",,"pH 7.0, 1% DMSO, added: phenylglyoxal 2 µM",,IC50,280 nM
O=C1OC2CC1N(C(=O)c1cc(Cc3n[nH]c(=O)c4ccccc34)ccc1F)C2 (stereo not shown),"Poly [ADP-ribose] polymerase 1 (PARP1, Homo sapiens, UniProt P09874)",enzyme activity,,experiment Exp1,,IC50,0.544 nM
O=C(OC(C(F)(F)F)C(F)(F)F)N1CCC(OC(c2ccc(F)cc2)c2ccc(F)cc2)CC1,"Monoacylglycerol lipase ABHD6 (ABHD6, Homo sapiens, UniProt Q9BV23)","inhibitor, fluorescence",,,,IC50,1340 ± 15.6 nM
CC(C)(C)OC(=O)N1CCN(S(=O)(=O)c2ccc3[nH]c(=O)oc3c2)CC1,"Nucleotide triphosphate diphosphatase NUDT15 (NUDT15, Homo sapiens, UniProt Q9NV35)","enzyme activity, inhibitor, malachite green",,added: dGTP,,IC50,1300 nM
NC(=O)c1cn(-c2ccc(F)cc2)c2ccc(NCCc3cccnc3)cc2c1=O,"Metabotropic glutamate receptor 2 (Grm2, Rattus norvegicus, UniProt P31421)","calcium mobilization, negative allosteric modulator",,,,IC50,296 nM
CC(=O)Nc1ccc(Br)cc1-c1nc2ccccc2[nH]c1=O,"Protein diaphanous homolog 1, FH2 domain (Diaph1, Mus musculus, UniProt O08808)","actin assembly, inhibitor, pyrene-actin polymerization",,,,IC50,> 50000 nM
CN1CCC[C@@H]1C(=O)N[C@@H](Cc1ccc(-c2ccccn2)cc1)B(O)O,"PSMB6/PSMB7, caspase-like site (Homo sapiens, UniProt P28072+Q99436)","β1c enzyme activity, inhibitor",,added: Z-LLE-AMC,,IC50,> 10000 nM
COc1cccc(CCN2CCN(c3cc(N4CCCC4)nc(N4CCCC4)n3)CC2)c1,"Caspase-1 (CASP1, Homo sapiens, UniProt P29466)","enzyme activity, inhibitor",,"30 min preincubation, added: Ac-WEHD-AMC 10 µM",,IC50,108 ± 13 nM
COc1cc(Nc2ncnc(-c3cccnc3Nc3cc(NC(=O)c4cccc(C(F)(F)F)c4)ccc3C)n2)cc(OC)c1OC,"Tyrosine-protein kinase ABL1 (ABL1, Homo sapiens, UniProt P00519)",enzyme activity,,,,IC50,10 ± 3 nM
CC(=O)Nc1ccc2cnn(-c3cc(NC4CC4)n4ncc(C#N)c4n3)c2c1,"Casein kinase II subunit alpha (CSNK2A1, Homo sapiens, UniProt P68400)","target engagement, NanoBRET",HEK293,,,IC50,94 nM
COC(=O)/C(=C/c1c[nH]c2ccc(C#N)cc12)c1ccc(F)cc1,APP amyloid-beta peptide,"Aβ42 oligomerisation, ELISA",,,,IC50,> 20000 nM
OCC1C(O)C(O)C(O)CN1CC(F)(F)CCCOCc1ccc(-c2ccccc2)cc1 (stereo not shown),"Ceramide glucosyltransferase (Ugcg, Mus musculus, UniProt O88693)","inhibitor, C6-NBD-ceramide in situ",RAW264.7,,,IC50,20 nM
C=CCn1c(Cc2ccccc2)nnc1Sc1c2c(c(C#N)c3nc4ccccc4n13)CCCC2,"ERO1-like protein alpha (Homo sapiens, UniProt Q96HE7)","enzyme activity, inhibitor, fluorescence",,,,IC50,29700 nM
Cc1n[nH]c(C)c1-c1ccc(C2(c3ccc(Cl)cc3)CCNCC2)cc1,"RAC-alpha serine/threonine-protein kinase (AKT1, Homo sapiens, UniProt P31749)","kinase activity, inhibitor, radiometric HotSpot",,added: ATP 10 µM,,IC50,51 nM
CC(C)CC(C(=O)OCC(=O)Nc1cccc(Cl)c1)N1C(=O)C2CC=CCC2C1=O (stereo not shown),"Cruzipain (Trypanosoma cruzi, UniProt P25779)","enzyme activity, inhibitor, fluorogenic substrate cleavage",,"0.01% Triton X-100, added: Z-FR-AMC",,IC50,5000 nM
O=C(c1ccc(O)c(Br)c1)N1Cc2ccccc2C1,"Heat shock protein HSP 90-beta (HSP90AB1, Homo sapiens, UniProt P08238)","binding, fluorescence polarization",,added: FITC-geldanamycin tracer,,IC50,> 100000 nM
O=C(O)CNC(=O)c1cc(C(=O)O)cc([C@H]2CCN[C@@H]2C(=O)O)c1,"Glutamate receptor ionotropic, NMDA 2D with GluN1","ion current, antagonist, two-electrode voltage clamp",Xenopus oocytes,"GluN1/GluN2D, added: glycine 100 µM and glutamate 1 µM",,IC50,44300 ± 7900 nM
N#Cc1ccc2[nH]cc(/C=C/c3ccncc3)c2c1,"Indoleamine 2,3-dioxygenase 1 (IDO1, Homo sapiens, UniProt P14902)","enzyme activity, inhibitor",,,,IC50,> 50000 nM
COC(=O)[C@@H]1C(C=Nc2ccccc2O)=Cc2cc3c(cc2[C@H]1c1cc(OC)c(OC)c(OC)c1)OCO3,Leishmania,,mouse splenocytes,,baseline: CC50 over amastigote EC50,selectivity index,> 10.1
C[C@H](NC(=O)c1cc(C(=O)O)cc([C@H]2CCN[C@@H]2C(=O)O)c1)C(=O)O,"Glutamate receptor ionotropic, NMDA 2D with GluN1","ion current, antagonist, two-electrode voltage clamp",Xenopus oocytes,"GluN1/GluN2D, added: glycine 100 µM and glutamate 1 µM",,IC50,33800 ± 4470 nM
Cc1ccc(C(=O)n2cc(C#N)c3ccccc32)cc1,"Neutrophil elastase (ELANE, Homo sapiens, UniProt P08246)","enzyme activity, inhibitor, fluorogenic substrate",,,,IC50,10100 ± 1300 nM
CS(=O)(=O)Oc1ccc(/C=C/c2c[nH]c3ccc(C#N)cc23)cc1,APP amyloid-beta peptide,"Aβ42 oligomerisation, ELISA",,,,IC50,4000 nM

# For quick reference, copied from above:
Structure (SMILES),tested on,test,system,setting,how to read,endpoint,result
COC(=O)[C@@H]1C(C=Nc2ccccc2O)=Cc2cc3c(cc2[C@H]1c1cc(OC)c(OC)c(OC)c1)OCO3,Leishmania,,mouse splenocytes,,baseline: CC50 over amastigote EC50,selectivity index,> 10.1
COc1cccc(CCN2CCN(c3cc(N4CCCC4)nc(N4CCCC4)n3)CC2)c1,"Caspase-1 (CASP1, Homo sapiens, UniProt P29466)","enzyme activity, inhibitor",,"30 min preincubation, added: Ac-WEHD-AMC 10 µM",,IC50,108 ± 13 nM
